Assay results of several laboratories.
Numbered parts are unrelated; each lists some results of a single study.

Block 1
Target: Replicase polyprotein 1ab, main protease (rep, Severe acute respiratory syndrome coronavirus 2, UniProt P0DTD1)
Observed: enzyme activity
Mode: inhibitor
Concentration: 20 µM
Setting: hit confirmation, with DTT
SMILES	inhibition
COc1ccc2[n-]c([S@@+]([O-])Cc3ncc(C)c(OC)c3C)nc2c1.COc1ccc2[n-]c([S@@+]([O-])Cc3ncc(C)c(OC)c3C)nc2c1.O.O.O.[Mg+2]	-6.8%
O=c1cc(-c2ccc(O)cc2)oc2cc(O)cc(O)c12	-9.2%
O=C1c2c(O)cc(O)cc2O[C@H](c2cc(O)c(O)c(O)c2)[C@H]1O	-14.3%
CNC(=O)ON(C(C)=O)C(=O)NC	17.5%

Block 2
Target: Replicase polyprotein 1ab, nsp13 helicase (rep, Severe acute respiratory syndrome coronavirus 2, UniProt P0DTD1)
Mode: inhibitor
Concentration: 20 µM
Structure (SMILES)	inhibition
CCC(=O)O[C@]1(C(=O)CCl)[C@@H](C)C[C@H]2[C@@H]3CCC4=CC(=O)C=C[C@]4(C)[C@@]3(F)[C@@H](O)C[C@@]21C	4.53%
COc1ccc(CNC(=O)/C=C/c2ccc3[nH]cc(CCN(C)C)c3c2)cc1	6.17%
O=C(O)Cc1ccc(-c2ccccc2)cc1	5.08%
CCN(CC)CCOC(=O)C1(c2ccc([N+](=O)[O-])cc2)CCCC1	6.08%
CCCCCCCCCC(=O)O[C@H]1CC[C@H]2[C@@H]3CCC4=CC(=O)CC[C@@H]4[C@H]3CC[C@]12C	-0.43%
Cc1c(NC(=O)c2cc3c(s2)CCCC3)cccc1-c1cn(C)c(=O)c(Nc2ccc([C@@H]3C(=O)N(C)CCN3C)cc2)n1 (racemic)	2.35%
COc1ccc(-c2cc3c(C)nc(N)nc3n([C@H]3CC[C@H](OCCO)CC3)c2=O)cn1	2.33%
CCCCC/C=C\C/C=C\C/C=C\CCCCC(=O)O	11.5%
C[n+]1c2cc(N)ccc2cc2ccc(N)cc21	45.5%
COc1ccc(-n2nc(C(N)=O)c3c2C(=O)N(c2ccc(N4CCCCC4=O)cc2)CC3)cc1	10.6%
Cc1cn([C@H]2C=C[C@@H](CO)O2)c(=O)[nH]c1=O	-3.08%
COC(=O)c1ccccc1-c1c2ccc(=N)cc-2oc2cc(N)ccc12	-144%
CCCc1nc(C)c2c(O)nc(-c3cc(S(=O)(=O)N4CCN(CC)CC4)ccc3OCC)nn12	6.74%

Block 3
Cell line: HEK-293T
Observed: pseudovirus infection
Organism: VSV pseudotyped with SARS-CoV-2 spike
Concentration: 10 µM
Time: 16 h
Baseline: vehicle-treated
Compound	GFP-positive cells [%]
O=C(O)[C@@H](S)[C@@H](S)C(=O)O	81.7
Cc1cn([C@@H]2C[C@@H](O)[C@H](CO)O2)c(=O)[nH]c1=O	97.8
CC(=O)OCC(=O)[C@@]1(OC(C)=O)[C@@H](C)C[C@H]2[C@@H]3C[C@H](F)C4=CC(=O)C=C[C@]4(C)[C@@]3(F)[C@@H](O)C[C@@]21C	89.5

Block 4
Target: Interferon regulatory factor 7, full length, phosphomimetic (IRF7, Homo sapiens, UniProt Q92985, residues 1-503, S101K/S471D/S472D/S475D/S476D/S477D/S483D/S484D/S487D)
Sequence of UniProt Q92985 (whole entry, unmodified, looked up): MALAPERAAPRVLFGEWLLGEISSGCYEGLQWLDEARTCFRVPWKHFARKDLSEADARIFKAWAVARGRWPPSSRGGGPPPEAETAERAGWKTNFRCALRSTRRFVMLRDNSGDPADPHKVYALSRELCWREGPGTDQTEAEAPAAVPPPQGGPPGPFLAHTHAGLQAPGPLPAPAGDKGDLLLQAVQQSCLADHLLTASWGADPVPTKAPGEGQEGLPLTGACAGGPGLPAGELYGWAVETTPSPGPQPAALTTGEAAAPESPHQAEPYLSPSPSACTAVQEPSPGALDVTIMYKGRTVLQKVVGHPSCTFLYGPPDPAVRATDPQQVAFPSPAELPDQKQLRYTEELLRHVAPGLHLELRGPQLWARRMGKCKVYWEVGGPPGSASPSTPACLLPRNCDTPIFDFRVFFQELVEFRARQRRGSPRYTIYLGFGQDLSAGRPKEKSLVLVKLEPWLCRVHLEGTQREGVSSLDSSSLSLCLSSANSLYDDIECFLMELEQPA
Method: protein-binding microarray
Molecule type: double-stranded DNA, one strand shown
Sample: in vitro
Concentration: 250 nM
Setting: 60-bp whole probe
Added: salmon DNA 0.4 mg/ml
Baseline: random background probes
Direction: higher = stronger binding
Constant ends, left off below: GCCTAGCAC … GTCTTGATTCGCTTGACGCTGCTG
Sequence	log fluorescence
TTAGGACTGGGTCCCGGTTAGTGCTAG	0.622 z-score
TTAGATATCGGGACTGGTTTAGTGCTA	0.418 z-score
ACAACTAGGGAATTTAGAAAAGTGCTA	0.127 z-score
TCAAACCCCATTCTCAGACTGTGCTAG	0.371 z-score
GACGATTTCGGGTTTCGACACGTGCTA	3.5 z-score
TCAGTGATAGCTCTGGTACTGTGCTAG	-0.511 z-score
GACGATTTGAGTTCCGAGACGTGCTAG	0.269 z-score
TTAGATTTCGGGTATCGATTGGTGCTA	2.15 z-score

Excerpt of the above (block 1):
SMILES	inhibition
COc1ccc2[n-]c([S@@+]([O-])Cc3ncc(C)c(OC)c3C)nc2c1.COc1ccc2[n-]c([S@@+]([O-])Cc3ncc(C)c(OC)c3C)nc2c1.O.O.O.[Mg+2]	-6.8%
O=C1c2c(O)cc(O)cc2O[C@H](c2cc(O)c(O)c(O)c2)[C@H]1O	-14.3%
